# Assay results collected from several papers.
# Every numbered part comes from another study and shows a few of its results, in no order. Substitutions count along the parent as printed.

# Series 1 — target: Sox, HMG box (Pigoraptor chileana); technique: Spec-seq; molecule type: double-stranded DNA, one strand shown; matrix: in vitro; concentration: not given; setting: whole probe, mean of replicates; baseline: not given; reading: lower = stronger binding; constant ends, left off below: GAGTCGTCTCGTCAGCACC … CCGTAGAGCACTCAGGTC
# Construct (chain): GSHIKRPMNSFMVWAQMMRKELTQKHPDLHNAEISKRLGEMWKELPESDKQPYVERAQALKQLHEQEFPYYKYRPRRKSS
Oligonucleotide,relative binding energy
ATGCTG,0.658 ln ratio
GGAGTT,1.4 ln ratio
ATGGGT,0.732 ln ratio
ATGCGC,0.654 ln ratio
ATCGCC,0.986 ln ratio
ATCTCT,0.607 ln ratio
ATATGA,0.188 ln ratio
ATGTAA,0.411 ln ratio
GACGTT,1.35 ln ratio
ATCCAC,0.334 ln ratio
ATAGGG,-0.409 ln ratio
ATGGTT,0.235 ln ratio
CATGTT,-0.257 ln ratio

# Series 2 — technique: RNA Bind-n-Seq; molecule type: RNA; matrix: in vitro; concentration: 365 nM; baseline: no-protein control; reading: higher = stronger binding
# Target: RNA binding protein fox-1 homolog 2, RRM domain, GST-SBP tag (RBFOX2, Homo sapiens, UniProt O43251-10, residues 100-194)
# Setting: natural RNA segment, single round, ends assumed
# Constant ends, left off below: GGGAGUUCUACAGUCCGACGAUC … UGGAAUUCUCGGGUGCCAA
# Residues (chain): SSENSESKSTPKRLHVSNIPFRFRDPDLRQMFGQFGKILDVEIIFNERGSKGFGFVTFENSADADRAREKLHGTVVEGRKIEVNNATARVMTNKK
Oligonucleotide,RBNS enrichment (R)
UGCUAGUGCUGACGAUGUUCUGUACAACUUAACUCACUGGCGAGAAUACAGCGUGGGACCCUUCAGCCACUACAACAGAAUUUUUUAAAUUGACAGUUGCAGAAUUGUGG,0.502
AUUCUGAAAGUUGUCUAGUUCUUCCUUCAUCACACGUGCUUCUCAUCGAAACCCUGGUUUCAGGAUGGAUCAAGUGCUGUUACAGCUCAUGUUCCUUAGACCUGAUUUGU,0.192
UUUAUAUUUUAGUUUGUCACCUUUGCAUUGCAGAAUAAAUACUGAAUAACCAUUUUUAUAAGCAGUUGCUCCUCUUUGCAUGGUUCUAUUCUCUAAAAGUGUUGAAUGAU,0.931
UCUGUUUGAGGAACUAACUACAUGGAAAAGACUUCUGACUUAAACCCAUGAAAUACUUCAUCUUGAGAAGAGUGCUAUGUGGAAAUCACCAAAUAUCUCGCAACUUUAUU,0.555
AAGCUACUCACAGUGGCAAAUGCCUUUUAUCCUAGCACUCCUUAAGCAGAGGCAAACAGGUUUCUUGAGUUCAGGCCAGUCAGGUCUGCAUAAGGAGCUUUAGACCAGUC,0.302
UGUGUGGAAGAAGCCAUUUUGUACUGCUUUAAAGUUAGACUAAUAUUCUCAGCACGGGUGUAUGGGGACCUCAUUACCUAUUUUUUUCAUCAUUUACCCUAGGUAAGAAC,0.573
CAACCUCCCACUGCUGGAGUGCGAGUGGGAAUCAGAGCCUCCUGAAGCCUCUGGGAACUCCUCCUGUGGCCACCACCAAAGGAUGAGGAAUCUGAGUUGCCAACUUCAGG,0.291
GCAAUGAGGAGAUACACGAUUCUGAAAGGUCAUCUGAAGCCUGAAACCCCUAGAGCAACCCCCUCUCCUAGCAUUGCCAAAUGCUGGUCUUGGUGAGGAUGGGUUUCAAA,0.202
CCCAACUUCUCCCCGGCAGCUCUGCCUCCCUAAGUCUGUGAAGCCGCAGCCCUGCCCUGUCCUGUCCUGUCCUGACUUCAUCUCUCCUUCUGCCCAAGUCUGUGUCCCAU,1.09
GCGUAUCCGCCACCAGGGACAUUAAGAAACCGCACGUGAUGUCGCUAUGCUCUAACGAUCACCUCAGUUCUCCCUCGGAUUCUGGGAACAGAUGAAACUUUUUGCAUCGC,1.34
GUUUAUUUUUUCCCCACAGACGCACACACCAACACAUUUAUAUUCAUUGCUUCCUCCCACUUUGUGCUCUGUAAAAGAGCUACAGCUGGCAAGAUGUUUUUUCGGCCCUU,1.55
GCUCUCUGUGGGGGAAGUGUCACAGUUGGUGGUGUCCCCUCUGUGUGGUGCAGUGUCUCUCUUUGUAGGGACUACAAGAAAUAACUUUGAAGGCAAGAAAGUCAUUAGCU,0.558

# Series 3 — technique: universal PBM; molecule type: double-stranded DNA, one strand shown; matrix: in vitro; concentration: not given; reading: higher = stronger binding
# Target: Sal-like protein 4, full length isoform B (SALL4, Homo sapiens, UniProt Q9UJQ4-2, residues 1-616)
# Setting: 8-mer, flanks averaged, mean of replicates
Oligonucleotide,E-score
CATCAGCG,-0.106
ATCCGGGG,-0.182
ATTTAACG,0.252
TCTTTTCA,0.148
CAGAACCC,-0.148
CAGGGCGC,-0.329
AGCAAGCG,-0.161
CTGTTGCC,-0.14
TCCGTAAA,0.0316
CAGAACGC,-0.223
AATCCGGC,-0.236
GGATGCTA,-0.136
TAATTCTA,0.229
GCGACCTA,-0.185
CTCGAGGC,-0.253
CACACTAC,0.00806
GCCGTCAA,-0.213
CTGGTATA,-0.0371
TCAGACAA,-0.0115

# Series 4 — target: CCNB3, cyclin fold, Cln2 fusion (human); technique: yeast growth competition, sequencing; matrix: yeast; setting: weak parent motif; baseline: not given; reading: higher = stronger binding
# Parent: SLBP docking peptide (human); ARYKRKLLINDFG
Variant,normalised enrichment score
ARYKRMLLINDFG [K6M],-0.000153
ARYKRKLLIWDFG [N10W],0.435
ARIKRKLLINDFG [Y3I],0.252
ARCKRKLLINDFG [Y3C],0.0512
ARYKRKPLINDFG [L7P],0.213
ARYKRKELINDFG [L7E],0.0693
ARYARKLLINDFG [K4A],-0.122
ARYKRKSLINDFG [L7S],-0.281
ARYKRKLLINHFG [D11H],-0.0929
ARYKVKLLINDFG [R5V],0.488
ARFKRKLLINDFG [Y3F],0.195
CRYKRKLLINDFG [A1C],-0.206
ARRKRKLLINDFG [Y3R],0.125
ARYKRKLLINDSG [F12S],-0.161
ARYKWKLLINDFG [R5W],-0.356
ARYKRKLLSNDFG [I9S],0.704
ARYKRKLLINDFR [G13R],0.0308
ARYKRTLLINDFG [K6T],0.318

# Series 5 — technique: protein-binding microarray; molecule type: double-stranded DNA, one strand shown; matrix: in vitro; concentration: 250 nM; setting: 60-bp whole probe; with: salmon DNA 0.4 mg/ml; baseline: random background probes; reading: higher = stronger binding; constant ends, left off below: GCCTAGCAC … GTCTTGATTCGCTTGACGCTGCTG
# Target: Interferon regulatory factor 7, full length, phosphomimetic (IRF7, Homo sapiens, UniProt Q92985, residues 1-503, S101K/S471D/S472D/S475D/S476D/S477D/S483D/S484D/S487D)
# Construct (chain): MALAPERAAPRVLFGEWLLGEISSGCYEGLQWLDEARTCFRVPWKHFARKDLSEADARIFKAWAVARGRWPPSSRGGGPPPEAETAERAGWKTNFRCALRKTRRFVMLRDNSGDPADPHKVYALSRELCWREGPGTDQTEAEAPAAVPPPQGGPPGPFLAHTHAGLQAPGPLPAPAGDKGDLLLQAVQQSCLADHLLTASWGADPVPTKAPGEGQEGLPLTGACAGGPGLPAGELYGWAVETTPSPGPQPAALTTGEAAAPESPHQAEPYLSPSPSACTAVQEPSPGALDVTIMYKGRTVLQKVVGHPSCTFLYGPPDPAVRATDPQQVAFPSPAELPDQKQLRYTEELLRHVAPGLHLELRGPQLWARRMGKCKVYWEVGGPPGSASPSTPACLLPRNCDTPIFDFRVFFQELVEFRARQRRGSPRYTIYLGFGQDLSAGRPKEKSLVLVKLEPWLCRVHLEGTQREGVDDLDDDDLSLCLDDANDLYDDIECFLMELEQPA
Oligonucleotide,log fluorescence [z-score]
TTAGGTTTCGGGACTGGATTAGTGCTA,4.22
GACCGTTTCGGGTATCGGGACGTGCTA,3.72
AGATACCTTTAACAGTGCCTGTGCTAG,-0.199
GACGATTTCAGTTCCGAGAGGTGCTAG,0.39
CCACTCTTGCTTTTTAGATCGTGCTAG,0.356
TTAGGTATCGGACTGGGTTAGTGCTAG,0.15
GCCGGACTGGGTTTCGGGACGTGCTAG,1.69
AGTTAATCCCTCTCAGGCATGTGCTAG,0.0752
GACGGTATCAGTCTCGAGACGTGCTAG,0.308
TCATGTTTGGTTCTTATACTGTGCTAG,0.878
TCATTTTTTTTTTTACTACTGTGCTAG,1.1
GAAGATTTCAATTAAAAAAAGTGCTAG,0.304
TGGCCTCTAGGTTTTCTGGAGTGCTAG,-0.918
GACGGTATGGACTTTCGGGACGTGCTA,-0.552
TTAGGTTTCAACACTGGGTTAGTGCTA,0.0136

# Mixed results
Molecule,target,test,system,setting,scale,measurement,value
"PhoQ, residues 284 288 289 292 302 303 TSTLRA","PhoP, residues 12 14 15 18 19 TPLRH (Escherichia coli, UniProt P23836)","Sort-seq, item: YFP reporter",E. coli,"PhoQ-PhoP variant library, with: 10 µM Mg2+","baseline: high Mg2+ state, higher = stronger signaling",fold induction,12.7

# Repeated from above (series 5):
Oligonucleotide,log fluorescence [z-score]
TTAGGTTTCGGGACTGGATTAGTGCTA,4.22
GACGATTTCAGTTCCGAGAGGTGCTAG,0.39
AGTTAATCCCTCTCAGGCATGTGCTAG,0.0752
TTAGGTTTCAACACTGGGTTAGTGCTA,0.0136
GACGGTATGGACTTTCGGGACGTGCTA,-0.552
CCACTCTTGCTTTTTAGATCGTGCTAG,0.356
GACGGTATCAGTCTCGAGACGTGCTAG,0.308
